Assay results collected from several papers.
Compare with care: the assays were run in different laboratories. Values joined by “and” are separate records of one study, mostly repeats; a detail may differ. Numbers after ± are the reported error. No end group written: not given here.
B1: bicyclic; chain AATCHCRRSCYSTEYSYGTCTVMGINHRFCCL (also: bicyclic or more (positions not given here))
UniProt P11712, sequence (whole entry, looked up): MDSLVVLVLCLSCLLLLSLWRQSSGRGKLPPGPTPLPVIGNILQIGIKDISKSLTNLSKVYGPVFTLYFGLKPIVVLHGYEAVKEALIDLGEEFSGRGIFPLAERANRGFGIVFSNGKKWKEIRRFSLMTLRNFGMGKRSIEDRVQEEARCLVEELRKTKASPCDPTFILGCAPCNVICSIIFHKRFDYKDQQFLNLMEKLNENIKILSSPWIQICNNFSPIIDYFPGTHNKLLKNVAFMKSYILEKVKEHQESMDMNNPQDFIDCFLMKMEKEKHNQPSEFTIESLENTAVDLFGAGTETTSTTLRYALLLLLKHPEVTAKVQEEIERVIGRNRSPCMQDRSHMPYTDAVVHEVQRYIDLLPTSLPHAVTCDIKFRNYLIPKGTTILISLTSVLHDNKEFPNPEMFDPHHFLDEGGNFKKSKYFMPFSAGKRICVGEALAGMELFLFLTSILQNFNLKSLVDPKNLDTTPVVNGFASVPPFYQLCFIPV
UniProt Q9UNQ0, sequence (whole entry, looked up): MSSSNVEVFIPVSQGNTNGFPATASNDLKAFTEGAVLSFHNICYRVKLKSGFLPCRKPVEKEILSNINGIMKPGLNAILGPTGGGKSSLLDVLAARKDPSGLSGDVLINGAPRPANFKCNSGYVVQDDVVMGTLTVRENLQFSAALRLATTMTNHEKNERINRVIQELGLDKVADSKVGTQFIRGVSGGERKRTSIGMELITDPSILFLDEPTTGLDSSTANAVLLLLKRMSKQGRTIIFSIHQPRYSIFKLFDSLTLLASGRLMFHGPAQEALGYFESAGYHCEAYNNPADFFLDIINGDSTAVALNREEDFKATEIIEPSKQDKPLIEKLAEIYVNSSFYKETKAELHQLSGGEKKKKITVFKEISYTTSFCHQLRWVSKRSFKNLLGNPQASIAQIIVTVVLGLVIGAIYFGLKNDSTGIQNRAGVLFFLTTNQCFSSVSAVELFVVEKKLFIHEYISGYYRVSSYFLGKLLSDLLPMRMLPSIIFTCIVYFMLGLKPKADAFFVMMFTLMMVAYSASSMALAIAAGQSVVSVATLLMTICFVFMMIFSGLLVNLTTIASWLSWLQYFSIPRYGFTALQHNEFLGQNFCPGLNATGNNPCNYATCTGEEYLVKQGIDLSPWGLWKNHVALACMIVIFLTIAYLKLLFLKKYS

| Molecule | tested on | assay | system | conditions | scale | quantity | value |
| --- | --- | --- | --- | --- | --- | --- | --- |
| Triton X-100 | human red blood cells | – | – | concentration not given, 1 h | – | hemolysis | 99.9% |
| NRVDSKETEC | human MAGI1-3/6 PDZ construct (MBP fusion) | surface plasmon resonance | peptide | concentration not given | higher = stronger binding | normalised SPR binding response | 0 normalised RU |
| GSGSSRYWANATRSGG | T2/TAP1+2 cells | ER peptide stability | peptide | together with: tunicamycin 10 µg/mL, 45 min pretreatment | – | half-life | ~20 min |
| Astragaloside I | Cytochrome P450 2C9 (CYP2C9, Homo sapiens, UniProt P11712) | enzyme activity, inhibitor | human liver microsomes 0.2 mg/mL | together with: tolbutamide 100 µM | – | IC50 | > 200 µM |
| NLVPMVATV | HLA-A2 complex with compound | nanoDSF | peptide | pH 7.6, 2 µM complex | – | Tm | 64.9 ± 0.1 °C |
| regorafenib N-β-glucuronide | – | – | Oatp1b2 knockout mice | oral, 10 mg/kg regorafenib | reference: wild-type mice | metabolite to parent ratio | 5.3 fold |
| NASC | PC-12 | CellTiter-Glo | peptide | 1 mM, 72 h | reference: vehicle | viability | 103% and 100% and 101% |
| caspofungin | – | – | adult ICU patients, mITT, serum | dose not given, day 30 | – | albumin | 32.2 g/L |
| RRGCLCYCRRRFCVCVCR (disulfide (positions not given here)) (disulfide) | human red blood cells | – | – | 128 µg/mL, 3 h, 37 °C | reference: Triton X-100 1% | haemolysis | 33.4% |
| FNA / CGLSGLGVA-NH2 ([18F]FNA-labelled, C-amide) | – | ex vivo gamma counting | peptide, healthy mouse, uterus | 60 min post injection | – | tissue uptake | 0.6 %ID/g |
| Polymyxin B | – | untargeted LC-MS metabolomics, item: L-methionine | Sprague-Dawley rat, right cerebral cortex | intracerebroventricular, 0.75 mg/kg, 1 h | reference: NaCl control | log2 fold change | -9.5 |
| LVHYTHCGSLGV | Epstein-Barr virus | – | peptide, EBV-infected humanized B-NDG mice | 20 mg/kg, day 0 | – | body weight | 21.8 g and 19.4 g and 22.9 g |
| Teicoplanin | – | – | human serum QC samples | room temperature | – | stability time | ≤ 2 days |
| B1 | – | sedimentation velocity AUC | 10 mM Tris-maleate | 50 µM, pH 6.4, 20 °C | – | sedimentation coefficient S20,w | 0.796 S |
| colistin | Klebsiella pneumoniae | broth microdilution | clinical isolate RKI-No_393/16 | – | – | MIC | 64 mg/L |
| RRWCLCFCRRRFCVCVCR (disulfide (positions not given here)) (disulfide) | human red blood cells | – | – | 128 µg/mL, 3 h, 37 °C | reference: Triton X-100 1% | haemolysis | 51.2% |
| Lucifer yellow | ABCG2 (Homo sapiens, UniProt Q9UNQ0) | substrate | – | together with: AMP | – | uptake rate | 6.08 ± 0.734 pmol/min/mg |
| GSGAGPETLV | human SCRIB PDZ3-4 tandem (MBP fusion) | automated holdup | peptide, purified PDZ protein | concentration not given, unit not given | reference: biotin control resin, higher = stronger binding | binding intensity | 0.565 |
| Rilpivirine docusate | – | – | octanol/water | room temperature | – | apparent logP | 2.87 and ~2.9 |

A few entries again:
| Molecule | tested on | assay | system | conditions | scale | quantity | value |
| --- | --- | --- | --- | --- | --- | --- | --- |
| caspofungin | – | – | adult ICU patients, mITT, serum | dose not given, day 30 | – | albumin | 32.2 g/L |
| RRGCLCYCRRRFCVCVCR (disulfide (positions not given here)) (disulfide) | human red blood cells | – | – | 128 µg/mL, 3 h, 37 °C | reference: Triton X-100 1% | haemolysis | 33.4% |
